Measured values collected from several papers.
Numbered parts are unrelated; each lists some results of a single study.

Block 1
Target: RNA binding protein fox-1 homolog 2, RRM domain, GST-SBP tag (RBFOX2, Homo sapiens, UniProt O43251-10, residues 100-194)
Method: RNA Bind-n-Seq
Molecule type: RNA
Medium: in vitro
Concentration: 365 nM
Notes: natural RNA segment, single round, ends assumed
Reference: no-protein control
Direction: higher = stronger binding
Residues (chain): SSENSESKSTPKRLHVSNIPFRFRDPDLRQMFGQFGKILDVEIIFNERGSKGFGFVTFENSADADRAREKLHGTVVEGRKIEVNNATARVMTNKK
Oligonucleotide	RBNS enrichment (R)
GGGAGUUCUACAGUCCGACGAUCCCAUUUCCAAGGGCAGGAAGGGGCAGUGUCCUGAAGCCCAUCUUUUCUGUGACUGUCUUAGGUGAUGUGUAGCCCCCUCCACCUUUCCACUCAACAACCUCCCACCCCUGUGGAAUUCUCGGGUGCCAA	0.522
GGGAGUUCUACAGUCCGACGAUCGGGUGGGGGGAAAUCACUGUUUGUUUUUAAAAGCAAAUCUUUUGUAAACAGAAUAAAAGUUCCUCUCCCUUCCCUUCCCUCACCCCUGAUAUGUACCCUUUCCACCCCUUUGGAAUUCUCGGGUGCCAA	0.282
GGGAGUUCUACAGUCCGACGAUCGAGACCUGAGCUCUUCUGGCCACGUGGAACCUCGAACCCGAGCUCCUGCAGAAGUGGCCCUGGAGAUUGAGGGUCCCUGGACACUCCCUAUGGAGAUCCGGGGAGCUAGGUGGAAUUCUCGGGUGCCAA	0.21
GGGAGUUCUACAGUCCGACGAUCUGAGGCGACAGUGAGCUAGGAUCGCACCACUGCACUCCAGCCUGAGUGACAGAGCAAGACCCUGUCUCUAAAAAAAAUUAAAAUGAAAGACCAGGUGCUGGGAUUAAGGAUGGAAUUCUCGGGUGCCAA	9.14
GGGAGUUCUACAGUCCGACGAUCAGGCCCCCCGAAGCCCUGUGAACCACCUGCUGCCCUGUGAGGCCCCCAAAGCCCUGUGAACUGCCUGCUGUCCUGUGAACUGCCUGCUGCCCUGUGAGGUGUGGGAGCCCUGGAAUUCUCGGGUGCCAA	1.01
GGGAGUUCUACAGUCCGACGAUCAAAGGGAACUUUUUGUCUACGCUAAGUCCCUGGCUUCCUCUUAAUCGGUUGGUCUUGCUAAUUGAAGCUCAGAAAAAUAUAGAUGGUCUCUCCCGACCCUGUUUGUGGUGUGGAAUUCUCGGGUGCCAA	1.68
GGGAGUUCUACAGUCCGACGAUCUCCCUUUCUUUGACUGACAGAGCACCAUCCAGGCAAAAUUAGAGCGCCAAAUGGUUUUCUUCUCAAUCUUAAAGCAGUAUACCUUUCCACAGGCUCGUCUGUGUCCCUGCUGGAAUUCUCGGGUGCCAA	0.301
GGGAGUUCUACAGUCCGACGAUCUAAGAGUCCCUGAGAGAGCUUCAGCUUAUAACAAGGCUAAUUUUAGGUUGUACGUCAUUCUCGAUGUUUAACAUGAGAAGCAAGGAAGGCAUGAUUUUUAUCAGUGAUUUUGGAAUUCUCGGGUGCCAA	0.556

Block 2
Target: Prothrombin, mature alpha-thrombin (F2, Homo sapiens, UniProt P00734)
Method: aptamer microarray, sandwich
Molecule type: DNA with 2'F-ANA
Medium: in vitro
Concentration: 200 nM
Notes: whole 15-mer aptamer, many near background
Added: Cy3 exosite-II aptamer, 400 nM
Direction: higher = stronger binding
Oligonucleotide: GGTTGGTGTGGTTGG
Modification	mean fluorescence intensity [a.u.]
2'F-ANA at 1 5 6 13 14 15	57.8
2'F-ANA at 2 3 4 6 7 8 10 12 14	174
2'F-ANA at 1 4 5 6 8 9 10 12 15	52
2'F-ANA at 1 2 6 7 10 11 13 14 15	68.4
2'F-ANA at 7 9 13	401
2'F-ANA at 1 2 3 7 8 9 10 11 12 15	86.1
2'F-ANA at 3 9 14 15	612
2'F-ANA at 1 2 4 5 9 10 11 13 14	60.5
2'F-ANA at 1 3 8 9 11 12	537
2'F-ANA at 2 3 6 7 8 9 12 14 15	419
2'F-ANA at 1 4 5 6 10 12 13 14	48.2
2'F-ANA at 1 4 5 6 8 10 11 12 13 14 15	50.6
2'F-ANA at 10 11 12 13	193
2'F-ANA at 2 5 9 12 14	50.2
2'F-ANA at 2 5 7 8 10 11 12 15	49.2
2'F-ANA at 1 6 8 11 13 14 15	61.4
2'F-ANA at 4 6 7 11 13 14	78.9
2'F-ANA at 1 6 7 8 9 10 13 14 15	48.1
2'F-ANA at 1 3 8 9 10 11 12 14 15	62.9

Block 3
Target: Histone acetyltransferase KAT6A, winged helix 2, GST fusion (KAT6A, Homo sapiens, UniProt Q92794, residues 85-181)
Method: protein binding microarray
Molecule type: double-stranded DNA, one strand shown
Medium: in vitro
Concentration: not given
Notes: 8-mer, flanks averaged, mean of 2 arrays, mostly near background
Reference: not given
Direction: higher = stronger binding
Construct (chain): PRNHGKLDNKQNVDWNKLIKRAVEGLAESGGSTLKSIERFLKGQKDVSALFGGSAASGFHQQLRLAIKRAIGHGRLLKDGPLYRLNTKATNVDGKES
Oligonucleotide	E-score
TCAGTAGA	-0.0187
CACGAAGC	-0.0438
CATAGGAG	0.00624
AAGGATGT	-0.174
AGAGTTCA	-0.108
AATAGACT	-0.214
AAACCCGC	0.176
GGATGGCA	0.0724
AGCTTTGG	-0.131
CTTGAGTA	0.0316
CAGATAGG	-0.0975
AGGAACAA	-0.0738
CCCTATGA	-0.146
AATATGCG	-0.109
AGATCGGC	0.101
ATCCGGAC	0.0379
GCGCACAC	-0.0171
AAAGTGAG	0.0653
TAATTCTA	0.0775
AGGATACT	-0.145
GACGCCTC	0.0117
AATATTTC	0.101
ACGCGATG	0.0364
CGTACACC	-0.147

Block 4
Target: Interferon regulatory factor 7, full length, phosphomimetic (IRF7, Homo sapiens, UniProt Q92985, residues 1-503, S471D/S472D/S475D/S476D/S477D/S483D/S484D/S487D)
Method: protein-binding microarray
Molecule type: double-stranded DNA, one strand shown
Medium: in vitro
Concentration: 2200 nM top
Notes: 60-bp whole probe
Added: salmon DNA 0.4 mg/ml
Reference: random background probes
Direction: higher = stronger binding
Constant ends, left off below: GCCTAGCAC … GTCTTGATTCGCTTGACGCTGCTG
Residues (chain): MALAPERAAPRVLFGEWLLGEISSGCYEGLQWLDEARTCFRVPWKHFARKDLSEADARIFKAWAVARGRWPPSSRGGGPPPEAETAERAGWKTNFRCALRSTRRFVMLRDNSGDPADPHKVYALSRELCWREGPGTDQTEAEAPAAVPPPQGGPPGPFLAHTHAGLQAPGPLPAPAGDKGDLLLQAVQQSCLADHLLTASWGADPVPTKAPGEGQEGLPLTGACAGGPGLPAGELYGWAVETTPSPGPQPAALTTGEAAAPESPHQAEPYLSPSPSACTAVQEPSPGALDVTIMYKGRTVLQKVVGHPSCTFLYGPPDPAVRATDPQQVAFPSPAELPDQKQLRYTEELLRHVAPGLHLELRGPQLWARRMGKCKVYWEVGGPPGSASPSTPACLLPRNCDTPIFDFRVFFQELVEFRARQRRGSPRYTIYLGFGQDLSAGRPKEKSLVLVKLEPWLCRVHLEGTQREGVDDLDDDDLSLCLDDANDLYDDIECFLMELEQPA
Oligonucleotide	fitted relative affinity [z-score]
TTCGGTATCGGGTATCGGTTAGTGCTA	1.13
TCAGGTTTCCTTATCCTTTAGTGCTAG	2.44
GACTGTCTCCTACTGCTGACGTGCTAG	1.17
GACGGTTTCGGTTACGGGACGTGCTAG	7.65
TCACCTTCTACTCTCCTACTGTGCTAG	2.47
TTAGGTATCCGTATCCTTTAGTGCTAG	1.01
TCAGTCATCGATTTCTTACTGTGCTAG	1.27
TTTGGTATCGGTATCGGTTAGTGCTAG	1.7
TTAGGTCTCGATCTCGGTTAGTGCTAG	0.508
TTCGGTTTCGACACTGGGTTAGTGCTA	4.69
GACGGTTTACTTTCCCTGACGTGCTAG	2.56
GGCTGTTTGGTCCTGATCCTGTGCTAG	0.589
TCATGTTTCCTCTTTCTACTGTGCTAG	3.77
GGATGTGTCTTAAATAGGGCAGTGCTA	-0.62
TTAGGACTGCTTCTCCTTTCGTGCTAG	1.39
TTAGGTTTCGCTTCCGGTTAGTGCTAG	8.96
GACGGTTTCGGGTTTCGAGACGTGCTA	8.99
GACGGTTTCGGGTATCTGGACGTGCTA	5.96

Repeated from above (block 3):
Oligonucleotide	E-score
AATATGCG	-0.109
AATAGACT	-0.214
AGATCGGC	0.101
CACGAAGC	-0.0438
AAGGATGT	-0.174
CCCTATGA	-0.146
AATATTTC	0.101
GACGCCTC	0.0117
ATCCGGAC	0.0379
CTTGAGTA	0.0316
